Assay results from different studies.
Protocols differ between the studies behind these lines. Numbers after ± are the reported error.
Cell line: PC-3

COC(=O)C(NC(=O)CNC(=O)CNC(=O)COc1ccc2c(C)cc(=O)oc2c1)c1ccccc1 (stereo in doubt) — IC50 (cell growth or viability, MTT): 147 µM
Cc1ccc(C(C)C)cc1.N=C(N)Nc1nc2ccccc2s1.[Cl-].[Cl][Ru+] — IC50 (cell growth or viability, MTT; 24 h): 125 µM
FC(F)(F)c1c(-c2ccc(Br)cc2)noc1-c1cccs1 — IC50 (cell growth or viability, MTT; 48 h): 30.9 µM
C[C@]12CC/C(=N\O)C=C1CCC1C2CC[C@]2(C)/C(=C/c3ccccn3)CCC12 (stereo partly drawn) — IC50 (cell growth or viability, MTT; 72 h): > 100 µM
CCN1CCC2(CC1)C/C(=N\NC(=O)Nc1ccccc1)c1ccccc1O2 — IC50 (cell growth or viability, MTT; 48 h): 9.09 µM
C[C@]1([N+](=O)[O-])C(=O)c2ccccc2O[C@@H]1CC(=O)OC12CC3CC(CC(C3)C1)C2 — IC50 (cell growth or viability, SRB; 96 h): 10.6 µM
CCN1CCC2(CC1)C/C(=N\NC(=O)Nc1ccc(OC)cc1)c1ccccc1O2 — IC50 (cell growth or viability, MTT; 48 h): 15.5 µM
C=C1CC(OC(=O)C(C)(O)CCl)C2C(=C)C(=O)OC2C2C1CC(O)C2(O)CCl (stereo not drawn) — IC50 (cell growth or viability): 0.2 µg/mL
CCCC(CCC)C(=O)[O][Pt]1([OH])[O]C(=O)C(=O)[O]1.NC1CCCCC1N — IC50 (cell growth or viability): 53.2 µM
COc1ccc(NC(=O)N/N=C2\CC3(CCN(C)CC3)Oc3ccccc32)cc1 — IC50 (cell growth or viability, MTT; 48 h): 3.3 µM
C=CCc1ccc(OCc2nnc(SCC(=O)Nc3ccc(F)cc3F)o2)c(OC)c1 — IC50 (cell growth or viability, MTT; 72 h): 2.09 µM
CC(C)=CCC1=C([O-])C(=O)c2ccccc2C1=O.CC(C)=CCC1=C([O-])C(=O)c2ccccc2C1=O.Cc1cc2cccnc2c2ncccc12.[Cu+2] — IC50 (cell viability, MTT; 24 h): 6.2 ± 1.6 µM
CC1(C)[C@@H](O)CC[C@]2(C)[C@H]3C(=O)C=C4[C@@H]5C[C@@](C)(C(=O)O)CC[C@]5(C)CC[C@@]4(C)[C@]3(C)CC[C@@H]12 — IC50 (cell growth or viability, MTT): > 40 µM
C[S+](C)([O-])[Pt-2]([Cl])([Cl])[N+](=Cc1ccc[nH]1)Cc1ccccc1 — IC50 (cell growth or viability, MTT; 24 h): 29.5 µg/mL
COC(=O)C[C@H]1Oc2ccccc2C(=O)[C@]1(C)[N+](=O)[O-] — IC50 (cell growth or viability, SRB; 96 h): > 50 µM
C[C@]12CC/C(=N\OCCN3CCCCC3)C=C1CCC1C2CC[C@]2(C)/C(=C/c3ccccn3)CCC12 (stereo partly drawn) — IC50 (cell growth or viability, MTT; 72 h): > 100 µM
C=CCc1ccc(OCc2nnc(SCC(=O)Nc3ccccc3Cl)o2)c(OC)c1 — IC50 (cell growth or viability, MTT; 72 h): 11.2 µM
CCCCn1cc(C(=O)O)c(=O)c2cc(F)c(Nc3ccc(OC)cc3OC)c(N)c21 — IC50 (cell growth or viability, SRB; 72 h): > 200 µg/mL
O=C([O][Ti+2][O]C(=O)c1ccc([P+]([Au-][Cl])(c2ccccc2)c2ccccc2)cc1)c1ccc([P+]([Au-][Cl])(c2ccccc2)c2ccccc2)cc1.c1cc[cH-]c1.c1cc[cH-]c1 — IC50 (cell viability, XTT; 72 h): 37.7 µM
CCCCCC(=O)NCCNC(=O)[C@]1(C)[C@@H]2CC[C@]3(C)[C@H](C(=O)C=C4[C@@H]5[C@@H](C)[C@H](C)CC[C@]5(C)CC[C@]43C)[C@@]2(C)CC[C@H]1OC(C)=O — IC50 (cell growth or viability, MTT; 48 h): 17.6 µM
FC(F)(F)Sc1ccc(-c2noc(-c3cccs3)c2C(F)(F)F)cc1 — IC50 (cell growth or viability, MTT; 48 h): 33.2 µM
CCCC(CCC)C(=O)[O][Pt]1([O]C(=O)C(CCC)CCC)[O]C(=O)C(=O)[O]1.NC1CCCCC1N — IC50 (cell growth or viability): 10.1 µM
C=CCc1cc(OC)c(OC(C)=O)c(OC)c1 — IC50 (MTT; 24 h): > 50 µM
O=C1c2ccc(O)cc2OC1(O)Cc1ccc(O)c(O)c1 (stereo not drawn) — IC50 (cell growth or viability, MTT; 72 h): > 400 µM
O=C1c2ccc3c4cccc5cccc(c6ccc(c2c36)C(=O)N1CCN1CCCCC1)c54 — IC50 (cell growth or viability, SRB; 72 h): 40.1 µM
CCCCCCCC(=O)NCCNC(=O)[C@@]1(C)[C@H](O)CC[C@@]2(C)[C@H]1CC[C@]1(C)[C@@H]2C(=O)C=C2[C@@H]3[C@@H](C)[C@H](C)CC[C@]3(C)CC[C@]21C — IC50 (cell growth or viability, MTT; 48 h): 13.8 µM
C[C@]1([N+](=O)[O-])C(=O)c2ccccc2O[C@@H]1CC(=O)Nc1nc2ccccc2s1 — IC50 (cell growth or viability, SRB; 96 h): > 50 µM
CC(=O)[O][Pt]([Cl])([Cl])[O]C(=O)CCCc1ccccc1.N.N — IC50 (cell growth or viability): 4.34 µM
CN(C)CCCO/N=C1/C=C2CCC3C(CC[C@]4(C)/C(=C/c5ccccn5)CCC34)[C@@]2(C)CC1 (stereo partly drawn) — IC50 (cell growth or viability, MTT; 72 h): > 100 µM
CC(=O)O[C@@H]1CC[C@@]2(C)[C@@H](CC[C@]3(C)[C@@H]2C(=O)C=C2[C@@H]4[C@@H](C)[C@H](C)CC[C@]4(C)CC[C@]23C)[C@@]1(C)C(=O)NCCNC(=O)OC(C)(C)C — IC50 (cell growth or viability, MTT; 48 h): > 30 µM
N=C(N)Nc1nc2ccccc2o1 — IC50 (cell growth or viability, MTT; 24 h): 169 µM
CN1CCC2(CC1)C/C(=N\NC(=O)Nc1ccccc1)c1ccccc1O2 — IC50 (cell growth or viability, MTT; 48 h): 12.3 µM
COC(=O)[C@H](CC(C)C)NC(=O)CNC(=O)COc1ccc2c(C)cc(=O)oc2c1 — IC50 (cell growth or viability, MTT): 70.8 µM
CC(=O)O[C@@H]1CC[C@@]2(C)[C@@H](CC[C@]3(C)[C@@H]2C(=O)C=C2[C@@H]4[C@@H](C)[C@H](C)CC[C@]4(C)CC[C@]23C)[C@@]1(C)C(=O)NCCNC(=O)c1ccccc1 — IC50 (cell growth or viability, MTT; 48 h): 13.7 µM
C[C@]1([N+](=O)[O-])C(=O)c2ccccc2O[C@@H]1CC(=O)OC1CCCCC1 — IC50 (cell growth or viability, SRB; 96 h): 32.9 µM
CC(=O)O[C@@H]1CC[C@@]2(C)[C@@H](CC[C@]3(C)[C@@H]2C(=O)C=C2[C@@H]4[C@@H](C)[C@H](C)CC[C@]4(C)CC[C@]23C)[C@@]1(C)C(=O)NCCNC(=O)CCCCCCCBr — IC50 (cell growth or viability, MTT; 48 h): 14.1 µM
C=CC(OC(C)=O)c1ccc(OC)cc1 (stereo not drawn) — IC50 (MTT; 24 h): > 50 µM
CCCCCC(=O)NCCNC(=O)[C@@]1(C)[C@H](O)CC[C@@]2(C)[C@H]1CC[C@]1(C)[C@@H]2C(=O)C=C2[C@@H]3[C@@H](C)[C@H](C)CC[C@]3(C)CC[C@]21C — IC50 (cell growth or viability, MTT; 48 h): 28.2 µM
CCOC(=O)C1=C(C)NC(=O)N[C@@H]1/C=C/c1ccc(OC)cc1 — IC50 (cell growth or viability, MTT; 24 h): 13.8 µM
CCCCCCCCC=CCCCCCCCC(=O)OC(COC(=O)Cc1c(C)n(C(=O)c2ccc(Cl)cc2)c2ccc(OC)cc12)COP(=O)([O-])OCC[N+](C)(C)C (stereo not drawn) — IC50 (cell growth or viability, SRB; 72 h): 33.5 µM
CC(=O)O[C@@H]1CC[C@@]2(C)[C@@H](CC[C@]3(C)[C@@H]2C(=O)C=C2[C@@H]4[C@@H](C)[C@H](C)CC[C@]4(C)CC[C@]23C)[C@@]1(C)C(=O)NCCNC(=O)c1ccc(C)cc1 — IC50 (cell growth or viability, MTT; 48 h): 9.73 µM
C=CC(OC(C)=O)c1cc(OC)cc(OC)c1 (stereo not drawn) — IC50 (MTT; 24 h): > 50 µM
O=C1c2ccc3c4ccc5c6c(ccc(c7ccc(c2c37)C(=O)N1CCN1CCCCC1)c64)C(=O)N(CCN1CCCCC1)C5=O — IC50 (cell growth or viability, SRB; 72 h): 84.6 µM
CC(=O)O[C@@H]1CC[C@@]2(C)[C@@H](CC[C@]3(C)[C@@H]2C(=O)C=C2[C@@H]4[C@@H](C)[C@H](C)CC[C@]4(C)CC[C@]23C)[C@@]1(C)C(=O)NCCNC(=O)CCCC[P+](c1ccccc1)(c1ccccc1)c1ccccc1 — IC50 (cell growth or viability, MTT; 48 h): 10.2 µM
COc1ccc(CN2C(=O)C(=O)c3cc(NC(C)=O)ccc32)cc1 — IC50 (cell growth or viability, MTT; 48 h): 0.38 µM

Some of these lines once more:
COC(=O)C[C@H]1Oc2ccccc2C(=O)[C@]1(C)[N+](=O)[O-] — IC50 (cell growth or viability, SRB; 96 h): > 50 µM
C[C@]12CC/C(=N\OCCN3CCCCC3)C=C1CCC1C2CC[C@]2(C)/C(=C/c3ccccn3)CCC12 (stereo partly drawn) — IC50 (cell growth or viability, MTT; 72 h): > 100 µM
C=CCc1ccc(OCc2nnc(SCC(=O)Nc3ccccc3Cl)o2)c(OC)c1 — IC50 (cell growth or viability, MTT; 72 h): 11.2 µM
CCCCn1cc(C(=O)O)c(=O)c2cc(F)c(Nc3ccc(OC)cc3OC)c(N)c21 — IC50 (cell growth or viability, SRB; 72 h): > 200 µg/mL
O=C([O][Ti+2][O]C(=O)c1ccc([P+]([Au-][Cl])(c2ccccc2)c2ccccc2)cc1)c1ccc([P+]([Au-][Cl])(c2ccccc2)c2ccccc2)cc1.c1cc[cH-]c1.c1cc[cH-]c1 — IC50 (cell viability, XTT; 72 h): 37.7 µM
CCCCCC(=O)NCCNC(=O)[C@]1(C)[C@@H]2CC[C@]3(C)[C@H](C(=O)C=C4[C@@H]5[C@@H](C)[C@H](C)CC[C@]5(C)CC[C@]43C)[C@@]2(C)CC[C@H]1OC(C)=O — IC50 (cell growth or viability, MTT; 48 h): 17.6 µM
FC(F)(F)Sc1ccc(-c2noc(-c3cccs3)c2C(F)(F)F)cc1 — IC50 (cell growth or viability, MTT; 48 h): 33.2 µM
